Results pooled from the literature.
Numbered parts are unrelated; each lists some results of a single study. Positions count from the first letter of the parent shown.

Block 1 — method: protein binding microarray; molecule type: double-stranded DNA, one strand shown; matrix: in vitro; concentration: not given; relative to: not given; reading: higher = stronger binding
Target: Histone acetyltransferase KAT6A, winged helix 1, GST fusion (KAT6A, Homo sapiens, UniProt Q92794, residues 1-85)
Notes: 8-mer, flanks averaged, mean of 2 arrays, mostly near background
Construct (chain): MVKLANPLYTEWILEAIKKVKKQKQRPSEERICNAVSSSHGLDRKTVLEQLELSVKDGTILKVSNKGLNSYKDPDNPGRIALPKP
`ATAGCGGC` has an E-score of 0.332.
For `GGGCTAAA`, the E-score was -0.0351.
For `AATATACG`, the E-score was 0.219.
The E-score of `CGTGTCTA` is reported as 0.0919.
`GGAGATAC` gave an E-score of 0.0178.
`TCGAGAGA` has an E-score of -0.121.
`CTCCTCCA` gave an E-score of -0.216.
For `ATACTACG`, the E-score was 0.0933.
`AATCATGG` has an E-score of -0.232.
`GGGAGCAA` has an E-score of -0.053.
For `CTGCTGGA`, the E-score was -0.19.
The E-score of `CCTCGACA` is reported as -0.168.
`CCAGCATC` has an E-score of -0.127.
With `ACGTCCTG` the E-score was -0.0823.

Block 2 — method: competition protein-binding microarray; molecule type: double-stranded DNA, one strand shown; matrix: in vitro; concentration: 2 µM; with: Cbf1 competitor, 0.05 µM; reading: higher = stronger binding
Target: Phosphate system positive regulatory protein PHO4, full length, GST-tagged (PHO4, Saccharomyces cerevisiae, UniProt P07270, residues 1-312)
Notes: whole 60-bp probe, lowest competitor level
Residues (chain): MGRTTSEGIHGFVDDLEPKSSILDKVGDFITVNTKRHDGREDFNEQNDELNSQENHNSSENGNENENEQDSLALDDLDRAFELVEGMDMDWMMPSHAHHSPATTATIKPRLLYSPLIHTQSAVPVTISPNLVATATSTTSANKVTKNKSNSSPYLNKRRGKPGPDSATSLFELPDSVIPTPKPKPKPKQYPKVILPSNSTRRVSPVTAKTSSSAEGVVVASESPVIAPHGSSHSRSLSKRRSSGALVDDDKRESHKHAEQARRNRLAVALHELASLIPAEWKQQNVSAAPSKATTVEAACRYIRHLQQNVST
The fluorescence intensity of `CGTCCTAGTGATTGGTAAGTGGGTGCCATGAGGAAGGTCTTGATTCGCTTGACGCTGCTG` is reported as 7190 a.u.
For `AAACACTTCCACCTACACGTGAGAGCCAAAGCCATAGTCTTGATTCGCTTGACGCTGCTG`, the fluorescence intensity was 14700 a.u.
`GGACCATATAGAGCATAGGTGTGGCCCGCGATCCAGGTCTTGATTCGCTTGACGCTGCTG` has a fluorescence intensity of 5170 a.u.
With `GTCTTGTCTCATTGCATCGTGGGTGTCCCCACTTCAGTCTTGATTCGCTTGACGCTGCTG` the fluorescence intensity was 11300 a.u.
The fluorescence intensity of `GCTGATATCTACGTACATGTGTATACTTGCCAATATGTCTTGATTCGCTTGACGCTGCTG` is reported as 7470 a.u.
`TCTCTCGCGTTGCTTCTTGTGACGGCAGTTGTATATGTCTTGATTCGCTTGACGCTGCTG` has a fluorescence intensity of 4570 a.u.
`CTTTCCCGATCTTGCACGGTGGGTGTAGCACATTTGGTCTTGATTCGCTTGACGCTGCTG` has a fluorescence intensity of 6970 a.u.
For `CGGGGTTAAGTTTGCTCCGTGGGTGGCTTGCAGCAGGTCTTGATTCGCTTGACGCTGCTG`, the fluorescence intensity was 5430 a.u.
`CTTCTGTAAATTTGCGTAGTGGGTGGACGCGCCCCGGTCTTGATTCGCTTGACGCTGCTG` gave a fluorescence intensity of 4630 a.u.
`CGGGGTTAAGTTTGGGATGTGGGTGGCTTGCAGCAGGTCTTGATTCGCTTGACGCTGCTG` gave a fluorescence intensity of 4860 a.u.

Block 3 — target: CCNB1, cyclin fold, Cln2 fusion (human); method: yeast growth competition, sequencing; matrix: yeast; notes: weak parent motif; relative to: not given; reading: higher = stronger binding
Starting sequence: RB1 docking peptide (human); PKPLKKLRFDIEG
`R8N` — result for “normalised enrichment score”: 0.138.
`E12C`: “normalised enrichment score” 0.506.
Under “normalised enrichment score”, `P3S` is recorded as 1.44.
Under “normalised enrichment score”, `R8H` is recorded as 0.655.
`L4G`: “normalised enrichment score” 0.435.
Under “normalised enrichment score”, `L7W` is recorded as 0.548.

Other studies, line by line
For `PhoQ, residues 284 288 289 292 302 303 AMDMFI`, the fold induction was 0.72 (PhoP, residues 12 14 15 18 19 AQALL (Escherichia coli, UniProt P23836); Sort-seq, measured: YFP reporter; E. coli; PhoQ-PhoP variant library, with: 10 µM Mg2+; relative to: high Mg2+ state, higher = stronger signaling).

Repeated from above (block 2):
The fluorescence intensity of `CGTCCTAGTGATTGGTAAGTGGGTGCCATGAGGAAGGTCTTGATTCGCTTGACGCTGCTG` is reported as 7190 a.u.
For `AAACACTTCCACCTACACGTGAGAGCCAAAGCCATAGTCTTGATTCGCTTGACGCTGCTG`, the fluorescence intensity was 14700 a.u.
